Published values from different studies.
Compare with care: the assays were run in different laboratories. Numbers after ± are the reported error.
Target: Cytochrome P450 3A4 (CYP3A4, Homo sapiens, UniProt P08684)
Chain of UniProt P08684 (whole entry, looked up): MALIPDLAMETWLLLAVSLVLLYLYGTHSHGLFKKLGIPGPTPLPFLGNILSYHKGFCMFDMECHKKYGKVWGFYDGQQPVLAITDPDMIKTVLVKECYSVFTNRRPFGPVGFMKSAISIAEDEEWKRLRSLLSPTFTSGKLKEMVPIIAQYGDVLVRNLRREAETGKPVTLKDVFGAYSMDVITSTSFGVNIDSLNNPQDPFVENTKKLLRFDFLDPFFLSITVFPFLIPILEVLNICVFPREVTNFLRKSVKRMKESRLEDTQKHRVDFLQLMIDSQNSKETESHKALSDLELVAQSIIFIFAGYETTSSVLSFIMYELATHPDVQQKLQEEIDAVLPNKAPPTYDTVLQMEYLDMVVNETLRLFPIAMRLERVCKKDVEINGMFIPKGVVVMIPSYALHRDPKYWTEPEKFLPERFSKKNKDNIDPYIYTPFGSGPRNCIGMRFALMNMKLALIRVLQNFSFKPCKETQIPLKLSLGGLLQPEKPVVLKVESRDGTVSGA

SMILES	test	test system	setting	scale	quantity	result
COc1ccc2cc(NC(=O)c3cc(-c4ccccn4)nc4ccccc34)ccc2c1	substrate, refers to: naphthalene-hydroxylated metabolite M1	baculosomes			kcat	0.03 s⁻¹
C=C(C)[C@@H]1CCC(CO)=C[C@H]1c1c(O)cc(CCCCC)cc1O		human	750 mg single dose		half-life	19.4 h
COc1ccc(F)cc1S(=O)(=O)Nc1cnc2c(c1)C(=O)NCCO2	inhibitor	human liver microsomes	together with: testosterone		IC50	> 100 µM
O=C(NC(CSC(Cc1ccccc1)C(=O)NCCCc1cccnc1)Cc1c[nH]c2ccccc12)c1cccnc1 (stereo not drawn)	thermal stability				ΔTm	6.3 °C
CC(=O)OC1(C(C)=O)CCC2C3C=C(CO)C4=CC(=O)CCC4(C)C3CCC21C (stereo not drawn)	substrate	recombinant enzyme	62 µM, 25 min		formation rate	9.6 ± 0.3 pmol/min/pmol P450
CC[C@@H]1CN2CCc3c([nH]c4cccc(OC)c34)[C@@H]2C[C@@H]1/C(=C\OC)C(=O)OC	recombinant enzyme metabolism		2 µM, 60 min		remaining compound	2%
Cc1cn2c(C(=O)NCc3ccc(C(F)(F)F)cc3)c(C)nc2s1	inhibitor				IC50	> 20 µM
CC(c1ccc(Cl)cc1F)N1CCCC(n2c(=O)[nH]c3cc(Cl)c(Cl)cc32)CC1 (stereo not drawn)			10 µM, 10 (unit not given)		inhibition	< 10%
CNC(=O)Oc1cc(C)c([S+](C)[O-])c(C)c1 (stereo not drawn)	inhibitor		2 µM, pH 7.4		inhibition	5.73%
Cc1ccc(N2CC3CCC(C2)N3C)cc1C(=O)N[C@H](C)c1cc(-c2cnn(C)c2)nc2ccccc12	enzyme activity				IC50	> 50 µM
CNC(=O)Oc1cc(C)c(S(C)(=O)=O)c(C)c1	inhibitor		10 µM, pH 7.4		inhibition	7.7%
CCn1ccc(-c2cc(-c3cnn(C)c3)cc([C@@H](C)NC(=O)c3cc(OCCN(C)C)ccc3C)c2)n1	enzyme activity, inhibitor	pooled human liver microsomes	10 (unit not given)		IC50	> 50 µM
CC(C)(O)c1ccccc1CC[C@H](c1cccc(/C=C/c2ccc3ccc(Cl)cc3n2)c1)[S+]([O-])CC1(CC(=O)O)CC1 (stereo partly drawn)		human liver fractions	1 µM, 30 min, pH 7.4		metabolised	0%
CC(C)c1ccc(Cn2ccc([C@H](C)[C@](O)(Cn3cnnn3)c3ccc(F)cc3F)n2)cc1		Candida albicans, SC5314, human liver microsomes	together with: midazolam	reference: IC50 CYP3A4 over MIC	selectivity ratio	> 1900
CCCS(=O)(=O)c1ccc2[nH]c(NC(=O)OC)nc2c1		human liver microsomes	10 µM, pH 7.4, together with: midazolam		inhibition	< 0%
O=C(NC(CSC(Cc1ccccc1)C(=O)NCCCc1cccnc1)Cc1ccc(-c2ccccc2)cc1)c1cccnc1 (stereo not drawn)	binding, absorbance		pH 7.4		Kd	0.053 µM
O=C1Cc2cc(CCN3CCN(C4=NS(=O)(=O)c5ccccc54)CC3)c(Cl)cc2N1		human liver microsomes	10 µM, pH 7.4, together with: midazolam		inhibition	< 0%
Nc1nc(Nc2ccc(Cl)cc2)nn1S(=O)(=O)c1ccc2ccccc2c1			20 (unit not given), pH 7.4		IC50	> 50 µM

A few entries again:
SMILES	test	test system	setting	scale	quantity	result
CC(C)c1ccc(Cn2ccc([C@H](C)[C@](O)(Cn3cnnn3)c3ccc(F)cc3F)n2)cc1		Candida albicans, SC5314, human liver microsomes	together with: midazolam	reference: IC50 CYP3A4 over MIC	selectivity ratio	> 1900
CCCS(=O)(=O)c1ccc2[nH]c(NC(=O)OC)nc2c1		human liver microsomes	10 µM, pH 7.4, together with: midazolam		inhibition	< 0%
O=C(NC(CSC(Cc1ccccc1)C(=O)NCCCc1cccnc1)Cc1ccc(-c2ccccc2)cc1)c1cccnc1 (stereo not drawn)	binding, absorbance		pH 7.4		Kd	0.053 µM
